Published values from different studies.
Each line is one published result; not all experiments were run side by side. ± marks the error that the study gave.
CHRM1: Muscarinic acetylcholine receptor M1 (CHRM1, Homo sapiens, UniProt P11229)
UniProt P11229, sequence (whole entry, looked up): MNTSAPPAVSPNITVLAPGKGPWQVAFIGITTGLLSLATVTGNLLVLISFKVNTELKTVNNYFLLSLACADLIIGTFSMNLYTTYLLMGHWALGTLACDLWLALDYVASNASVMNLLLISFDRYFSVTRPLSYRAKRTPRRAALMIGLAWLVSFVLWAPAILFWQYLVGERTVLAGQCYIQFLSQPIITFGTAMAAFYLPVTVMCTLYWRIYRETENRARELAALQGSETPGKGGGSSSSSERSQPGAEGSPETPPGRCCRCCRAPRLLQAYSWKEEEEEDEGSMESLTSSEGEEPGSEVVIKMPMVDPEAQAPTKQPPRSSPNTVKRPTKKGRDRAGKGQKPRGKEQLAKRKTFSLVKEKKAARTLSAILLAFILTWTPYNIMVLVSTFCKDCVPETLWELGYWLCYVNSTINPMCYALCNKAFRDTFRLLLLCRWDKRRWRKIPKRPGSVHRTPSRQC

Substance	target or system	assay	test system	setting	how to read	endpoint	result
C=CC(=O)Nc1cc(Nc2ncc(C(=O)OC(C)C)c(-c3cn(C)c4ccccc34)n2)c(OC)cc1N(C)CCN(C)C			human, fasted	oral, 40 mg single dose, geometric mean		terminal half-life	16 h
CC[C@H](C)[C@H](NC(=O)[C@H](Cc1ccccc1)NC(=O)[C@H](CC(=O)O)NC(=O)[C@H](CCCNC(=N)N)NC(=O)[C@H](C)NC(=O)[C@H](C)NC(=O)[C@H](CC(C)C)NC(=O)[C@H](CC(N)=O)NC(=O)[C@H](CC(=O)O)NC(=O)[C@H](CC(C)C)NC(=O)[C@@H](NC(=O)[C@@H](NC(=O)[C@H](CC(N)=O)NC(=O)[C@H](CCSC)NC(=O)[C@H](CCC(=O)O)NC(=O)[C@H](CC(=O)O)NC(=O)[C@H](CO)NC(=O)[C@H](Cc1ccccc1)NC(=O)[C@H](CO)NC(=O)CNC(=O)[C@H](CC(=O)O)NC(=O)CNC(=O)[C@@H](N)Cc1c[nH]cn1)[C@@H](C)O)[C@@H](C)CC)C(=O)N[C@@H](CC(N)=O)C(=O)N[C@@H](Cc1c[nH]c2ccccc12)C(=O)N[C@@H](CC(C)C)C(=O)N[C@H](C(=O)N[C@@H](CCC(N)=O)C(=O)N[C@H](C(=O)N[C@@H](CCCCN)C(=O)N[C@H](C(=O)N[C@H](C(=O)N[C@@H](CC(=O)O)C(=O)O)[C@@H](C)O)[C@@H](C)CC)[C@@H](C)O)[C@@H](C)CC			Japanese patients, moderate renal impairment	subcutaneous, 0.05 mg/kg	baseline: normal renal function	CL/F reduction	37%
CNC(=O)c1ccc(-c2cnc3ncc(Cc4ccc5ncccc5c4)n3n2)cc1F			human, severe hepatic impairment (Child-Pugh C), plasma	oral, 200 mg single dose		half-life (geometric mean)	6.08 h
C[C@]12CC[C@@H]3c4ccc(O)cc4CC[C@H]3[C@@H]1C[C@@H](O)[C@@H]2O		GC-MS	breast cancer women on NSAI, serum	vaginal, 0.03 mg, 3 h, day 0		minimum serum concentration	0 ng/mL
O=C(O)[C@H](c1ccccc1Cl)N1CCc2sccc2C1		HPLC-MS/MS	feline EDTA plasma	6 h, -80 °C, storage stability		deviation from nominal	-7%
O=C(O)/C=C/c1ccc(O)c(O)c1		UPLC-MS/MS	Wistar rat, microcirculation dysfunction model, plasma	oral, 100 mg/kg Salvia miltiorrhiza stem-leaf extract FS		CL/F	6.5 ± 2 mL/min/kg
CC(C)NC[C@@H](C(=O)N1CCN(c2ncnc3c2[C@H](C)C[C@H]3O)CC1)c1ccc(Cl)cc1			human, Mild hepatic function, plasma	oral, 100 mg single dose, NCI classification, geometric mean		apparent volume of distribution	16000 L
CCCC[C@@H]1NC(=O)[C@@H](NC(=O)[C@H](CCC(=O)O)NC(=O)CNC(=O)CN2CCN(CC(=O)O)CCN(CC(=O)O)CCN(CC(=O)O)CC2)CCCCNC(=O)C[C@@H](C(N)=O)NC(=O)[C@H](C(C)C)NC(=O)[C@@H]2CCCN2C(=O)[C@H](CCCNC(=N)N)NC(=O)CNC(=O)[C@H](Cc2c[nH]c3ccccc23)NC(=O)[C@H](CCCNC(=N)N)NC(=O)[C@@H](Cc2ccccc2)NC(=O)[C@H](Cc2c[nH]cn2)NC(=O)[C@H](CCC(=O)O)NC1=O [indium-111 labelled]			normal C57 mice, liver	intravenous, 0.037 MBq, 24 h		tissue uptake	0.12 ± 0.01 %ID/g
Cc1ccc(COc2ccccc2-c2cc(=O)n(C3CCCCC3O)cn2)cn1 (centres unmarked)	CHRM1	positive allosteric modulator, IP1 accumulation	CHO-M1 cells	1 µM, 60 min, 37 °C, with: ACh	baseline: ACh alone, higher = stronger potentiation	ΔpEC50 of ACh	0.41 ± 0.1 log units
CC(C)C[C@H](N)C(=O)N1CCC[C@H](NCC(=O)N2CCC[C@H]2C(N)=O)C1		capillary electrophoresis-MS	water			pKa1	5.21
CC[C@H](C)[C@H](NC(=O)[C@H](CCC(=O)O)NC(=O)[C@H](CO)NC(=O)[C@@H](NC(=O)[C@@H](N)CO)C(C)C)C(=O)N[C@@H](CCC(N)=O)C(=O)N[C@@H](CC(C)C)C(=O)N[C@@H](CCSC)C(=O)N[C@@H](Cc1cnc[nH]1)C(=O)N[C@@H](CC(N)=O)C(=O)N[C@@H](CC(C)C)C(=O)NCC(=O)N[C@@H](CCCCN)C(=O)N[C@@H](Cc1cnc[nH]1)C(=O)N[C@@H](CC(C)C)C(=O)N[C@@H](CC(N)=O)C(=O)N[C@@H](CO)C(=O)N[C@@H](CCSC)C(=O)N[C@@H](CCC(=O)O)C(=O)N[C@@H](CCCN=C(N)N)C(=O)N[C@H](C(=O)N[C@@H](CCC(=O)O)C(=O)N[C@@H](Cc1c[nH]c2ccccc12)C(=O)N[C@@H](CC(C)C)C(=O)N[C@@H](CCCN=C(N)N)C(=O)N[C@@H](CCCCN)C(=O)N[C@@H](CCCCN)C(=O)N[C@@H](CC(C)C)C(=O)N[C@@H](CCC(N)=O)C(=O)N[C@@H](CC(=O)O)C(=O)N[C@H](C(=O)N[C@@H](Cc1cnc[nH]1)C(=O)N[C@@H](CC(N)=O)C(=O)N[C@@H](Cc1ccccc1)C(=O)O)C(C)C)C(C)C			human, plasma	sc, 56.5 µg once weekly, day 1, arithmetic mean		t1/2	1.32 ± 0.467 h
C=C(C)[C@@H]1CC[C@]2(NCCN3CCS(=O)(=O)CC3)CC[C@]3(C)[C@H](CC[C@@H]4[C@@]5(C)CC=C(C6=CC[C@@](CF)(C(=O)O)CC6)C(C)(C)[C@@H]5CC[C@]43C)[C@@H]12			healthy human	oral, 700 mg, single ascending dose, geometric mean		t1/2	20.8 h
O=C(O)Cc1ccccc1Nc1c(Cl)cccc1Cl		glucuronidation	human liver microsomes	30 min, with: UDPGA		remaining compound	38 ± 3.2%
O=C(CCCCCCC(=O)Nc1ccccc1)NO			patients, serum	oral, 600 mg, cycle 1, with: flavopiridol		AUC(0-7 h)	9.35 µM·h
Cc1cc(Nc2cc3ncccc3c(N[C@@H]3C[C@H]4CC[C@@H](C3)N4CCC#N)n2)n[nH]1			beagle dog, male, plasma	oral, 30 mg/kg/day, last day of 4 weeks		Cmax	93.4 ng/mL
acyl ghrelin (human)			mouse, wild type, cortex	intravenous, 10 min		brain/serum ratio	5.84 µL/g
CCCC[C@H](NC(C)=O)C(=O)N[C@H]1CCC(=O)NC[C@@H](C(=O)N[C@@H](Cc2c[nH]c3ccccc23)C(N)=O)NC(=O)[C@H](CCCNC(=N)N)NC(=O)[C@@H](Cc2ccccc2)NC(=O)[C@H](Cc2c[nH]cn2)NC1=O			beagle dog, male, plasma	subcutaneous, 8.0 mg/kg daily, day 14		Cmax	359 ng/mL
CC(=O)N[C@H](CSSC[C@H](N)C(=O)O)C(=O)N[C@H](C)C(=O)N[C@H](CCCNC(=N)N)C(=O)N[C@H](CCCNC(=N)N)C(=O)N[C@H](CCCNC(=N)N)C(=O)N[C@H](C)C(=O)N[C@H](CCCNC(=N)N)C(N)=O		in vitro hemodialysis	bovine blood			hemodialysis rate constant kAB	0.0718 min⁻¹
Cc1nc(Nc2ncc(C(=O)Nc3c(C)cccc3Cl)s2)cc(N2CCN(CCO)CC2)n1			male C57BL/6 mouse wild type, plasma	oral, 10 mg/kg		oral bioavailability	13.2%
CCCOc1ccc([C@H]2CNC(=O)N2c2ccc3[nH]cnc3c2)cc1			human volunteers fasted, plasma	oral tablet, 1800 mg single dose, day 1, geometric mean		effective half-life	2.28 h
COC(=O)c1ccc2c(c1)NC(=O)/C2=C(\Nc1ccc(N(C)C(=O)CN2CCN(C)CC2)cc1)c1ccccc1			human, hepatic impairment Child-Pugh A, urine and plasma	oral, 100 mg single dose, geometric mean		renal clearance (0-72 h)	19.4 mL/min
Cc1cc(-c2cc(OC(=O)c3ccccc3)ccc2Cl)cc2nnc(Nc3ccc(OCCN4CCCC4)cc3)nc12			Long Evans rat, plasma	topical, 1%		plasma concentration at 24 h	not detected
CCCCCCCCCCCCCCCCCCOP(=O)([O-])OC1CC[N+](C)(C)CC1			rhesus monkey, male, plasma	oral, 7 mg/kg, single dose		Tmax	19 h
CC(C)(Sc1ccncc1-c1ccc(C#N)c2ccccc12)C(=O)O			male, urine	oral, 15 mg, 72 h, mild renal impairment		renal clearance	12.9 mL/min
CC[C@H](C)[C@H](NC(=O)[C@H](CCC(N)=O)NC(=O)[C@H](Cc1c[nH]cn1)NC(=O)[C@H](C)NC(=O)[C@H](CC(C)C)NC(=O)[C@H](CCCCN)NC(=O)[C@H](CCC(N)=O)NC(=O)[C@@H](NC(=O)[C@@H](NC(=O)[C@@H]1CSSC[C@H](NC(=O)CNC(=O)[C@H](Cc2ccccc2)NC(=O)[C@H](CO)NC(=O)[C@H](CCCNC(=N)N)NC(=O)[C@H](CC(C)C)NC(=O)CNC(=O)[C@H](CCC(N)=O)NC(=O)[C@H](Cc2ccccc2)NC(=O)[C@H](CC(N)=O)NC(=O)[C@H](CC(N)=O)NC(=O)[C@H](CCSC)NC(=O)[C@H](CO)NC(=O)[C@H](CCC(N)=O)NC(=O)[C@H](CCCNC(=N)N)NC(=O)[C@@H](N)Cc2ccc(O)cc2)C(=O)N[C@@H](CCCNC(=N)N)C(=O)N[C@@H](Cc2ccccc2)C(=O)NCC(=O)N[C@@H]([C@@H](C)O)C(=O)N1)[C@@H](C)O)C(C)C)C(=O)N[C@@H](Cc1ccc(O)cc1)C(=O)N[C@@H](CCC(N)=O)C(=O)N[C@@H](Cc1ccccc1)C(=O)N[C@H](C(=O)N[C@@H](CC(=O)O)C(=O)N[C@@H](CCCCN)C(=O)N[C@@H](CC(=O)O)C(=O)N[C@@H](CCCCN)C(=O)N[C@@H](CC(=O)O)C(=O)N[C@@H](CC(N)=O)C(=O)N[C@H](C(=O)N[C@@H](C)C(=O)N1CCC[C@H]1C(=O)N[C@@H](CCCNC(=N)N)C(=O)N[C@@H](CO)C(=O)N[C@@H](CCCCN)C(=O)N[C@H](C(=O)N[C@@H](CO)C(=O)N1CCC[C@H]1C(=O)N[C@@H](CCC(N)=O)C(=O)NCC(=O)N[C@@H](Cc1ccc(O)cc1)C(N)=O)[C@@H](C)CC)C(C)C)[C@@H](C)O			healthy male humans	dose not given, single dose, medium and high dose		duration of Wenckebach atrioventricular block	≤ 1 min
[2H]C([2H])([2H])Oc1cc2c(cc1OC([2H])([2H])[2H])C1CC(=O)C(CC(C)C)CN1CC2 (centres unmarked)		measured: β-HTBZ	human, fasted	oral, 15 mg single dose	baseline: tetrabenazine 25 mg fasted	geometric mean ratio Cmax	36.8%
Cn1c(-c2ccc(C(N)=O)cc2F)nnc1C(C)(C)Oc1c(F)cc(Cl)cc1F			young Japanese subjects, plasma	oral, 10 mg single dose, day 1		AUC(0-inf) mean	1280 ng·h/mL
O=c1cc(-c2ccccc2OCc2ccc(-c3nccs3)cc2)ncn1C1CCCCC1O (centres unmarked)	CHRM1	allosteric agonist, IP1 accumulation	CHO-M1 cells	1 µM, unit not given	baseline: maximum ACh response	change in baseline activity	5.3 ± 3.6
CCN1CCN(Cc2ccc(NC(=O)c3ccc(C)c(NC(=O)c4cncc(-c5cccs5)c4)c3)cc2C(F)(F)F)CC1			C57BL/6 mouse, serum	intraperitoneal, 20.0 mg/kg daily for 10 days, day 11	baseline: vehicle	serum creatinine	decreased
